Published values from different studies.
Every numbered part comes from another study and shows a few of its results, in no order. Substitutions count along the parent as printed.

Set 1
Target: Histone acetyltransferase KAT6A, winged helix 1, GST fusion (KAT6A, Homo sapiens, UniProt Q92794, residues 1-85)
Technique: protein binding microarray
Molecule type: double-stranded DNA, one strand shown
Medium: in vitro
Concentration: not given
Notes: 8-mer, flanks averaged, mean of 2 arrays, mostly near background
Relative to: not given
Direction: higher = stronger binding
Target sequence (chain): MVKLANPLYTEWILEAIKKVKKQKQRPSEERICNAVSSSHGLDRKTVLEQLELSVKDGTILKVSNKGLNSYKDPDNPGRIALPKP
| Sequence | E-score |
| --- | --- |
| AATAACAA | -0.256 |
| CAGTGATG | -0.139 |
| TCTTTGAA | -0.0781 |
| CAGCACGA | -0.162 |
| CTCCGTCC | 0.108 |
| AAGTATGC | 0.0396 |
| AGCGGAGA | -0.0361 |
| CGGTCGTA | 0.235 |
| TCAAGCGA | 0.0237 |
| GCGCCACA | 0.234 |
| TACCTGAA | -0.0277 |
| CGAGTCAG | 0.0566 |
| TAGCGATA | 0.0166 |
| CCGAACAG | 0.0518 |
| CAGCACAG | -0.187 |
| AAGGAAGT | -0.0294 |
| GAACATAC | -0.0444 |

Set 2
Target: CCNB1, cyclin fold, Cln2 fusion (human)
Technique: yeast growth competition, sequencing
Medium: yeast
Notes: weak parent motif
Relative to: not given
Direction: higher = stronger binding
Parent: SLBP docking peptide (human); ARYKRKLLINDFG
| Variant | normalised enrichment score |
| --- | --- |
| KRYKRKLLINDFG [A1K] | -0.0351 |
| ARYKRKLLINDYG [F12Y] | 1.4 |
| ARYKRVLLINDFG [K6V] | 0.675 |
| ARYKRKLLINDFE [G13E] | 0.819 |
| ARYKRFLLINDFG [K6F] | 0.509 |
| ARYKWKLLINDFG [R5W] | -0.76 |
| ARYKRKYLINDFG [L7Y] | 1.18 |
| ARYKRKLLINDRG [F12R] | 1.37 |
| ARYKRQLLINDFG [K6Q] | 0.917 |

Set 3
Target: Interferon regulatory factor 5, full length, phosphomimetic (IRF5, Homo sapiens, UniProt Q13568-2, residues 1-514, S451D/S453D/S456D/S462D)
Technique: protein-binding microarray
Molecule type: double-stranded DNA, one strand shown
Medium: in vitro
Concentration: 940 nM top
Notes: 60-bp whole probe
Together with: salmon DNA 0.4 mg/ml
Relative to: random background probes
Direction: higher = stronger binding
All sequences stand within: GCCTAGCAC … GTCTTGATTCGCTTGACGCTGCTG
| Sequence | fitted relative affinity |
| --- | --- |
| TTAGGTTCTCTTTTCCTTTAGTGCTAG | 0.849 z-score |
| GACGGTCTTCTACTGCTGACGTGCTAG | 0.23 z-score |
| TTAGGTCTCGGTCTCGGTTCGTGCTAG | 5.17 z-score |
| GACGGACTGCTACTGCGGACGTGCTAG | -0.635 z-score |
| GAGGATATCGGGACTGGAGACGTGCTA | -0.503 z-score |
| TTAGCTTTCAGTTTCGATTAGTGCTAG | 9.55 z-score |
| TTAGGTTTCGTGTATCGGTTAGTGCTA | 7.34 z-score |
| TTAGGCCTCGGTATCGGTTAGTGCTAG | 4.23 z-score |
| GACGATATCAGTCCCGAGACGTGCTAG | 0.292 z-score |
| TCAATATCCATTATAGAACTGTGCTAG | 0.612 z-score |
| ATAGGTCTCGGTTTCGGTTAGTGCTAG | 9.75 z-score |
| GACGGACTGGACTTTCAGGACGTGCTA | -0.412 z-score |
| GACGGTCTCCGTATCGGGACGTGCTAG | 0.256 z-score |
| ACAAATGGCCAACAAACATTGTGCTAG | -0.394 z-score |
| CACATCTGCTGTGGGAGCACGTGCTAG | -0.536 z-score |

Other studies, line by line
| Substance | target | assay | test system | setting | scale | quantity | result |
| --- | --- | --- | --- | --- | --- | --- | --- |
| PhoQ, residues 284 288 289 292 302 303 TLMATV | PhoP, residues 12 14 15 18 19 AQALL (Escherichia coli, UniProt P23836) | Sort-seq, measured: YFP reporter | E. coli | PhoQ-PhoP variant library, together with: 10 µM Mg2+ | relative to: high Mg2+ state, higher = stronger signaling | fold induction | 5.06 |
